# Measured values of several laboratories.
# Numbered parts are unrelated; each lists some results of a single study. Changes are numbered by the printed parent chain.

# Sample 1 — method: protein binding microarray; molecule type: double-stranded DNA, one strand shown; sample: in vitro; tested at: not given; reference: not given; reading: higher = stronger binding
# Target: Histone acetyltransferase KAT6A, winged helix 1, GST fusion (KAT6A, Homo sapiens, UniProt Q92794, residues 1-85)
# Setting: 8-mer, flanks averaged, mean of 2 arrays, mostly near background
# Residues (chain): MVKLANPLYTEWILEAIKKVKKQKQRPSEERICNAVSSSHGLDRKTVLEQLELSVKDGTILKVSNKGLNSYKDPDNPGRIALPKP
Oligonucleotide,E-score
ATCGCGGA,0.178
TAAGATAA,-0.0688
CAAACAAA,-0.264
AACCGTTG,0.0268
ACTCCCGG,0.227
ACGTATGG,0.0863
TAGCCAAA,-0.124
AAACGGAC,0.13
ATGAATTC,-0.0754
AGAACTAG,-0.161
TAACCGAA,-0.0869
CAAGCAAG,-0.158
AGCATCAT,-0.151
GGTGACTA,0.00136
ACTCGTCC,-0.0623
ACAAGGAA,-0.161
GCCGACCA,0.142
CAATACAG,0.0598
ACTGATTG,-0.308
AGGTAGGG,-0.271
AAATCTGG,-0.122
AAGTTAAA,-0.0655
AAGGTAGA,-0.198
TATACTCA,-0.0408
GTAAAGGA,-0.147

# Sample 2 — method: RNA Bind-n-Seq; molecule type: RNA; sample: in vitro; tested at: not given; reference: input RNA pool; reading: higher = stronger binding
# Target: RING finger protein unkempt homolog, zinc fingers 1-6, GST-SBP tag (UNK, Homo sapiens, UniProt Q9C0B0, residues 30-357)
# Chain of UniProt Q9C0B0 (30-357, looked up): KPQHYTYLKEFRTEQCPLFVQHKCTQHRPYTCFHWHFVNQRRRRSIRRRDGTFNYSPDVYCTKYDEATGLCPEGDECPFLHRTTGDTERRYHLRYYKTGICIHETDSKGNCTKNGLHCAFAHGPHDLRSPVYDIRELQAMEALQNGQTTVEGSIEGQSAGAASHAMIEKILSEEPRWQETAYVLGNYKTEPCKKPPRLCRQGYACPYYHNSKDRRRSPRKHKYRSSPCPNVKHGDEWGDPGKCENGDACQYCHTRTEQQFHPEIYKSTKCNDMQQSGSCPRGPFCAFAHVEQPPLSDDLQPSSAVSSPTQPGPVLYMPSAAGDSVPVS
# Setting: RNA with constant flanks, human and mouse sites, ends assumed
# Constant ends, left off below: GGGAGUUCUACAGUCCGACGAUC … CAACAGAGGAUUGAGCAUCA
Oligonucleotide,bound/input enrichment [ratio]
UCGGAGCUAUGCGGUGGUGCUAGAAUUUGUUAUAUUUUCCAUGAGACUUUUGGGCGAACCUUAGAAUCUGUUGAUCCACUUGGUGGCCUUAACACUAUUGACAUUUUGACUGCCAUUAGA,3.36
CAGAGAAGGGAAGAAAGUGAUCCUGAAUAUCGGUCCAGCAAAUCAAAGCCAUUGACCCUAUUAGAAUAUAAUUUAACUAUGGACACUGCAAAGCUGUUUAUGUCCUGCCUUCACGCCUGG,2.07
CGCGCGCCGGGGGGCGUGGGCUCGAGGGCGGGGAGCAGCGCCAAGUUGGUGAAGGGAGACCCAGGAAAGGCCUAGGGUUUGCGGAAGAUACUUGUCUGCAAGGAACCUGUCCCACUGAUA,0.164
GACCCAUAUUUCCACGAUCGUGUUGCUUCCUUCUAUGAAGGUCAGGUUGCAAUAUGGGAUCUUAGAAAAUUUGAGAAGCCAGUUUUGACAUUGACUGAGCAACCAAAACCCUUAACAAAA,0.513
UUGAAAAGGGAAGCCAAAAGGAUACGAGCCUCUUUCAUAAUCUCUCUGUUGGCUAGAGAUUUACUACAUCCGUCCUUGGAAGAGGAAAAGAAAAAACAUAAAAAGAAACGCCUAGUACAA,0.502
UUGUCCCCAGGUGGGGGGAAGCAGGGGAGAGAAAAUGGUAGCCAUUUUUACAUUGUUUUGUAUAGUAUUUAUUGAUUCAGGAAACAAACACAAAAUUCUGAAUAAAAUGACUUGGAAACU,1.17
AAACAAUUACUUUAUGAUUUCCCCUGGACAAAUGUUGGAAAAUUGGUGUUUGUGGGUAAGAAAUUUGAGAUUUUGCCAGAUGGCUUGCCUUCUGCCCGGAAGCUCAUAUACUACACGGGG,0.201
UGGCUUCGGGGCGUCUACCGCUUUGCCACUGAUAGGAAUGACUUCCGGAGGAACUUGAUACUAAAUUUGGGACUCUUUGCUGCGGGAGUUUGGCUGGCCAGGAACUUGAGUGACAUUGAC,0.169
UCCAAGGGGUCGGAGUCUGAAAGGGGAAAGCUACGAGGAGGGGACAGAGACUGGAGAGAAACGGAAUCACAGACACACAUUUUGUUUAAAUGGUCUAAACUGCCUGUUUGGUGGCAUUUA,0.36
GACCCCAUGCUGCUGCAGUUUUUCAAGUCUCAAGGUUAUAGGGACGGCCCCGGUAAUCCUCUUAGGCAUAAUUACGAAGGUACUUUAAGAGAUCUUCUACAAUUCUUCAAGCCAAGACAA,0.54
CUGCAUUUUGUCCACAUGAGAGGAUUACCUUUCCAAGCCAAUGCCCAAGACAUUAUAAACUUUUUUGCUCCACUCAAGCCUGUUAGAAUCACCAUGGAAUACAGCUCCAGUGGGAAGGCC,0.268

# Sample 3 — target: CCNA2, cyclin fold, Cln2 fusion (human); method: yeast growth competition, sequencing; sample: yeast; setting: strong parent motif; reference: not given; reading: higher = stronger binding
# Starting sequence: RBL2 docking peptide (human); STTRRRLFVENDS
Substitution,normalised enrichment score
STIRRRLFVENDS [T3I],5.51
STTRRELFVENDS [R6E],3.12
SRTRRRLFVENDS [T2R],6.14
STTRRRLFVNNDS [E10N],5.08
SMTRRRLFVENDS [T2M],5.4
STTRRRLFVENLS [D12L],4.46
STTRRRLFVENDK [S13K],5.62
STTVRRLFVENDS [R4V],2.27
STTRMRLFVENDS [R5M],0.908
STTRRRLDVENDS [F8D],1.72
STTLRRLFVENDS [R4L],0.53
STTRRRLFDENDS [V9D],5.58
STTRRRLQVENDS [F8Q],1.16
STTRRGLFVENDS [R6G],1.83
STTRRRLFVEHDS [N11H],5.49
STTRRRYFVENDS [L7Y],0.683
SETRRRLFVENDS [T2E],4.9
SDTRRRLFVENDS [T2D],3.3
STTRSRLFVENDS [R5S],0.583
STYRRRLFVENDS [T3Y],5.71
STTRRRLFPENDS [V9P],5.87
STVRRRLFVENDS [T3V],6.98
STTRRRLFVENDL [S13L],6.04
STNRRRLFVENDS [T3N],0.516
STHRRRLFVENDS [T3H],3.42

# Sample 4 — method: DHFR PCA, deep sequencing; sample: yeast; together with: (+)-ABA 4.8 µM; reference: wild-type fitted maximum; reading: higher = stronger binding
# Target: ABI1, truncated, D143A, DHFR fusion (Arabidopsis thaliana)
# Setting: methotrexate growth selection, single substitutions
# Starting sequence: PYL1, truncated, DHFR fusion (Arabidopsis thaliana); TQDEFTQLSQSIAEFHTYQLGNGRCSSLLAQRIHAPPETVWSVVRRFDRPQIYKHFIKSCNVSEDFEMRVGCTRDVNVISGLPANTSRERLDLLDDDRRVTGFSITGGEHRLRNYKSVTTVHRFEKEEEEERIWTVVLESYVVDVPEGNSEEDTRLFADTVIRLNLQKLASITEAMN
Substitution,relative binding score [%]
E14S,34.4
E139S,33.3
R74Y,-3.18
D3V,55.8
H16Y,-25.9
H16C,4.67
L166P,14.1
S150E,13.7
V136E,-12.2
L29F,-0.131
R90H,13
V70C,26
V100L,29.2
V142H,22.8
P36V,20.8
F66Q,62.4

# Sample 5 — method: RNA Bind-n-Seq; molecule type: RNA; sample: in vitro; tested at: 365 nM; reference: no-protein control; reading: higher = stronger binding
# Target: RNA binding protein fox-1 homolog 2, RRM domain, GST-SBP tag (RBFOX2, Homo sapiens, UniProt O43251-10, residues 100-194)
# Setting: natural RNA segment, single round, ends assumed
# Constant ends, left off below: GGGAGUUCUACAGUCCGACGAUC … UGGAAUUCUCGGGUGCCAA
# Construct (chain): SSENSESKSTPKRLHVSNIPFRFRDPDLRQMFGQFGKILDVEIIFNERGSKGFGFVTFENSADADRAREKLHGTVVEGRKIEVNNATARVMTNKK
Oligonucleotide,RBNS enrichment (R)
GAUUCAGAAAUACAUUUUCAUUAUCCAAAAUCAGCUUCAACAAAUGGUUUCUGGAGACAAAUAAUUUGUUUUCAUUAUCAUUGUAUAAUCAGGUUAAUGAUUUAUUUUUU,0.581
CCCUUAGCCUUGCUGUAGAGACUUCCGUCACCCUUGGUAGAGUUUAUUUUUUUGAUGGCUAAGAUACGCUGAUGCUGAAAUAAACUAGGGUUUUGGCCUGCCUGCGUCUG,1.57
UAAUUGCAAAGUAGUUCAAAGCAAAGAAAAGCUUACAUUAAUCCCUAGAUUUUAGAACUGUAUGUAGAAUUUUCACAGAAUACAUUGUUAAGCUAACACUUUUAACAACG,0.523
CUCUGGGUAGUGAGGGAUGACCAGUCUUGUCCUGAGAAAUGUUUCUCUUAGUCUUUAAGUUCAAAGACUAACCUGUAGCAAUCAGACUUUCCAAAAGGGGGUUCUCCAUU,0.233
AUCACUUCUCUAAGUAAGGUUGAAAUAUCCUUAUUGUAGCUACUGUUUUUAAUGUAAAGGUUAAACUUGAAAAGAAAUUCUUAAUCACGGUGCCAAAAUUCAUUUUCUAA,0.664
CCGUCUGUCUCCUUUCACCUCUGCGCCAGGUCGGUCCUCCCUGCCAACCUUCCCCAGCUCCAAUAUGUAGCAGUCUCUCUGGAUGGCGGAGAGUGAAGGAGACGGAGAAA,0.536
CCCUCCAUACCUCUAGUUGUGUCUGAUGCUCCGUGCUGUUCGGGAAUUGUUUUAUGUACACUUGUCAGGCAGAAAAGGUAGUGACCGGCCCGGCGUGGGCACACAGACAG,0.507
AUCUGGAAGGAUUCUCACUCGUAUUUCCCACCCCUAGUGGCCAGAGGAGGGAGGGGCACAGUGAAGAAGGGAGCCCACCACCUCUCCGAAGAGGAAAGCCACGUAGAGUG,0.891
GCUGUCACUGAAAUGAACUUGAUCUUGAUCUGCUUUGAUAUGGGGACAGAAUCCCCGACUGCACUAUUGAGGGAGUUUCAGAAGAGAAGGAAGAGGUGCUGGAAGGAUGC,0.714
GGUAAAAUACUGCAAAGAACUAACAACAACAGGUUAGUGUUGGCUCCUGAACAGUAAACCGCUCUGACUGAGCUUCAGUCACCCUCUUCUGUACGAGCCUCAUGCAAUUA,0.243
CCUGCAGCUAGUCAUAGUGAAGCCCACCCUAAGGCCCUGUGAGCGCCAGCUCCCUCACAUGUACUUGGUCCAACUGUAGGUGACUGGUUAUCACAUCUUCACUGGCCCCU,0.624
CACCUGGAGCCCGCUUCAAGCUCUCUGUUGCGCUCCCGCAUUUCUCAUGCUUCUUCUCAUGGGGUGGGGUUGGGGCAAAGCCUCCUUUUUAAUACAUUAAGUGGGGUAGA,0.418
